# Measurements from different studies.
# Compare with care: the assays were run in different laboratories. ± gives the spread as reported.
# Cell line: NCI-H460
SMILES,test,system,conditions,IC50
CC(=O)O[C@@H]1CC[C@@]2(C)[C@@H](CC[C@]3(C)[C@@H]2C(=O)C=C2[C@@H]4[C@@H](C)[C@H](C)CC[C@]4(C)CC[C@]23C)[C@@]1(C)C(=O)NCCNC(=O)CCCCCCCBr,"cell growth or viability, MTT",,48 h,15.8 µM
[Cl][Cu][Cl].c1ccc(-c2nnc(-c3ccc4c(c3)OCO4)[nH]2)nc1,"cell growth or viability, MTT",,24 h,4.75 µM
Clc1nc2ccccc2cc1-c1nc2cc(Br)ccc2[nH]1,"cell growth or viability, MTT",,48 h,31.4 µM
CC(=O)O[C@@H]1CC[C@@]2(C)[C@@H](CC[C@]3(C)[C@@H]2C(=O)C=C2[C@@H]4[C@@H](C)[C@H](C)CC[C@]4(C)CC[C@]23C)[C@@]1(C)C(=O)NCCNC(=O)c1ccccc1,"cell growth or viability, MTT",,48 h,7.78 µM
Clc1ccc2[nH]c(-c3cc4ccccc4nc3Cl)nc2c1,"cell growth or viability, MTT",,48 h,22.6 µM
Cn1[c]([Ir-3]234([NH3+])[n]5c6ccc5C(c5c(F)c(F)c(F)c(F)c5F)=C5C=CC(=[N+]52)C(c2c(F)c(F)c(F)c(F)c2F)=c2ccc([n]23)=C(c2c(F)c(F)c(F)c(F)c2F)C2=[N+]4C(=C6c3c(F)c(F)c(F)c(F)c3F)C=C2)[n+](C)c2ccccc21.F[P-](F)(F)(F)(F)F,cytotoxicity,,"1 h, added: visible light 2.8 mW/cm2",0.04 ± 0.003 µM
CC(C)Cn1cc(-c2ccnc(Nc3ccc(OCCCCCCC(=O)NO)cc3)n2)nn1,"cell growth or viability, SRB",,72 h,2.25 µM
Clc1nc2cc3c(cc2cc1-c1nc2ccccc2[nH]1)OCO3,"cell growth or viability, MTT",,48 h,> 100 µM
[NH2][Pt]1([NH2])([Cl])([O]C(=O)C(Cl)Cl)[O]C(=O)C2(CC(=O)C2)C(=O)[O]1,"cell growth or viability, MTT",,,> 200 µM
O=c1[nH]c2ccccc2nc1/C=C/C=C/c1ccccc1,"cell growth or viability, MTT",,72 h,14.6 µM
Fc1ccc2[nH]c(-c3cc4cc5c(cc4nc3Cl)OCO5)nc2c1,"cell growth or viability, MTT",,48 h,> 100 µM
CN1CCN(c2ccc(Nc3nccc(-c4cn(C5CCCC5)nn4)n3)cc2)CC1,"cell growth or viability, SRB",,72 h,> 10 µM
CC(=O)OC[C@H]1O[C@@H](Oc2ccc(C#[C][Pt+])cc2)[C@H](OC(C)=O)[C@@H](OC(C)=O)[C@@H]1OC(C)=O.O=S(=O)([O-])C(F)(F)F.c1ccc(-c2cccc(-c3ccccn3)n2)nc1,cell growth or viability,,72 h,17 µM
C=C1C2CC3C4N5CC6(C)CCCC47C6C5CC3(C1O)C7C2 (stereo not shown),"cell growth or viability, MTT",,,24.3 µM
COc1ccc2nc(Cl)c(-c3nc4cc(C)c(C)cc4[nH]3)cc2c1,"cell growth or viability, MTT",,48 h,38.2 µM
CCOC12C(O)C(OC)C3(O)CC(C1C3OC(=O)c1ccccc1)C13C(OC)CCC4(COC)CN(C)C1C2C(OC)C43 (stereo not shown),"cell growth or viability, MTT",,,13.9 µM
O=C(NCCNc1n[n+]([O-])c2ccccc2[n+]1[O-])C(F)(F)F,"cytotoxicity, MTT",10% FBS medium,"6 h + 18 h, hypoxia 3% O2",17.2 ± 4 µM
CC(C)Cn1cc(-c2ccnc(Nc3ccc(C(=O)Nc4ccccc4N)cc3)n2)nn1,"cell growth or viability, SRB",,72 h,7.02 µM
CCCC(CCC)C(=O)NCCNC(=O)[C@]1(C)[C@@H]2CC[C@]3(C)[C@H](C(=O)C=C4[C@@H]5[C@@H](C)[C@H](C)CC[C@]5(C)CC[C@]43C)[C@@]2(C)CC[C@H]1OC(C)=O,"cell growth or viability, MTT",,48 h,> 30 µM
CCC1=C(CC)C2=[N+]3C1=Cc1c(CC)c(CC)c4[n]1[Ir-3]31([n+]3ccccc3)([n+]3ccccc3)[n]3c(c(CC)c(CC)c3=CC3=[N+]1C(=C4)C(CC)=C3CC)=C2.Cl,cytotoxicity,,"1 h, added: visible light 2.8 mW/cm2",0.005 ± 0.001 µM
CC(=O)O[C@@H]1CC[C@@]2(C)[C@@H](CC[C@]3(C)[C@@H]2C(=O)C=C2[C@@H]4[C@@H](C)[C@H](C)CC[C@]4(C)CC[C@]23C)[C@@]1(C)C(=O)NCCNC(=O)CCCCC[P+](c1ccccc1)(c1ccccc1)c1ccccc1,"cell growth or viability, MTT",,48 h,> 30 µM
Cc1ccc2nc(Cl)c(-c3nc4cc(Cl)ccc4[nH]3)cc2c1,"cell growth or viability, MTT",,48 h,> 100 µM
C=C1C2CCC3(CCC4C5(C)CCCC4(CN(CCO)C5)C3C2)C1O (stereo not shown),"cell growth or viability, MTT",,,13.6 µM
Clc1cc2nc(-c3cc4cc5c(cc4nc3Cl)OCO5)[nH]c2cc1Cl,"cell growth or viability, MTT",,48 h,> 100 µM
CC(C)Cn1cc(-c2nc(Nc3ccc(OCCCCCCC(=O)NO)cc3)ncc2F)nn1,"cell growth or viability, SRB",,72 h,1.72 µM
CC(=O)O[C@@H]1CC[C@@]2(C)[C@@H](CC[C@]3(C)[C@@H]2C(=O)C=C2[C@@H]4[C@@H](C)[C@H](C)CC[C@]4(C)CC[C@]23C)[C@@]1(C)C(=O)NCCNC(=O)CCBr,"cell growth or viability, MTT",,48 h,11.9 µM
CCC1=C(CC)C2=[N+]3C1=Cc1c(CC)c(CC)c4[n]1[Ir-3]31([C]#[N+]c3ccc(OC)cc3)([C]#[N+]c3ccc(OC)cc3)[n]3c(c(CC)c(CC)c3=CC3=[N+]1C(=C4)C(CC)=C3CC)=C2.F[B-](F)(F)F,cell growth or viability,,dark,2.9 µM
CC(=O)O[C@@H]1CC[C@@]2(C)[C@@H](CC[C@]3(C)[C@@H]2C(=O)C=C2[C@@H]4[C@@H](C)[C@H](C)CC[C@]4(C)CC[C@]23C)[C@@]1(C)C(=O)O,"cell growth or viability, MTT",,48 h,27.2 µM
O=C(NCCCCCCCCNc1n[n+]([O-])c2ccccc2[n+]1[O-])C(F)(F)F,"cytotoxicity, MTT",10% FBS medium,"6 h + 18 h, hypoxia 3% O2",46 ± 24.1 µM
Cc1ccc(C(=O)C2Sc3nnc(-n4nc(C)cc4C)n3NC2c2ccc(Cl)cc2)cc1 (racemic),"cell growth or viability, imaging",,72 h,> 100 µM
Cc1ccc2nc(Cl)c(-c3nc4cc(Cl)c(Cl)cc4[nH]3)cc2c1,"cell growth or viability, MTT",,48 h,> 100 µM
CCCC(CCC)C(=O)NCCNC(=O)[C@@]1(C)[C@H](O)CC[C@@]2(C)[C@H]1CC[C@]1(C)[C@@H]2C(=O)C=C2[C@@H]3[C@@H](C)[C@H](C)CC[C@]3(C)CC[C@]21C,"cell growth or viability, MTT",,48 h,> 30 µM
N#Cc1c(-c2cccs2)cc(-c2cccc3ccccc23)n2c(Cc3ccccc3)nnc12,"cell growth or viability, MTT",,72 h,0.869 µM
Fc1ccccc1/C=C/c1nc2ccccc2nc1N1CCOCC1,"cell growth or viability, MTT",,72 h,19.5 µM
CC(=O)O[C@@H]1CC[C@@]2(C)[C@@H](CC[C@]3(C)[C@@H]2C(=O)C=C2[C@@H]4[C@@H](C)[C@H](C)CC[C@]4(C)CC[C@]23C)[C@@]1(C)C(=O)NCCNC(=O)CCCC[P+](c1ccccc1)(c1ccccc1)c1ccccc1,"cell growth or viability, MTT",,48 h,14.1 µM
COc1ccc(-c2nnc(-c3ccccn3)[nH]2)cc1OC.COc1ccc(-c2nnc(-c3ccccn3)[nH]2)cc1OC.[Cu+2].[O-][Cl+3]([O-])([O-])[O-].[O-][Cl+3]([O-])([O-])[O-],"cell growth or viability, MTT",,24 h,92.8 µM
O=C(NCCCCCCCNc1n[n+]([O-])c2ccccc2[n+]1[O-])C(F)(F)F,"cytotoxicity, MTT",,"24 h, normoxia 20% O2",88.7 ± 26.4 µM

# Some of these lines once more:
SMILES,test,system,conditions,IC50
Clc1ccc2[nH]c(-c3cc4ccccc4nc3Cl)nc2c1,"cell growth or viability, MTT",,48 h,22.6 µM
Cn1[c]([Ir-3]234([NH3+])[n]5c6ccc5C(c5c(F)c(F)c(F)c(F)c5F)=C5C=CC(=[N+]52)C(c2c(F)c(F)c(F)c(F)c2F)=c2ccc([n]23)=C(c2c(F)c(F)c(F)c(F)c2F)C2=[N+]4C(=C6c3c(F)c(F)c(F)c(F)c3F)C=C2)[n+](C)c2ccccc21.F[P-](F)(F)(F)(F)F,cytotoxicity,,"1 h, added: visible light 2.8 mW/cm2",0.04 ± 0.003 µM
CC(C)Cn1cc(-c2ccnc(Nc3ccc(OCCCCCCC(=O)NO)cc3)n2)nn1,"cell growth or viability, SRB",,72 h,2.25 µM
Clc1nc2cc3c(cc2cc1-c1nc2ccccc2[nH]1)OCO3,"cell growth or viability, MTT",,48 h,> 100 µM
[NH2][Pt]1([NH2])([Cl])([O]C(=O)C(Cl)Cl)[O]C(=O)C2(CC(=O)C2)C(=O)[O]1,"cell growth or viability, MTT",,,> 200 µM
